Experimental data collected from several papers.
Compare with care: the assays were run in different laboratories.

CC(F)(F)c1nc2nc(CO)cc(Nc3ccc(S(F)(F)(F)(F)F)cc3)n2n1 — Tmax (LC-MS/MS, non-compartmental; malaria patients; 600 mg of parent drug, median): 114 h
CCCCCCCCCCCCCCCC(=O)N[C@@H](CCC(=O)NCCCC[C@@H]1NC(=O)[C@H]([C@@H](C)CC)NC(=O)[C@@H](NC(=O)[C@@H]2CCCN2C(=O)[C@H](Cc2ccccc2)NC(=O)[C@H](Cc2c[nH]cn2)NC(=O)[C@@H](NC(=O)[C@H](CC(=O)O)NC(=O)CC(C)C)[C@@H](C)O)CSSC[C@@H](C(=O)N[C@@H](CCCCN)C(N)=O)NC(=O)CNC(=O)[C@H](CCCCN)NC(=O)[C@H](CO)NC(=O)[C@H](CCCNC(=N)N)NC(=O)[C@@H]2CCCN2C(=O)[C@H](CCC(=O)O)NC(=O)[C@H](Cc2ccccc2)NC1=O)C(=O)O — Tmax (healthy volunteers, plasma; subcutaneous, 45 mg single, lyophilised formulation, median): 4 h
CO[C@H]1CC[C@H](N2C(=O)CNc3ncc(-c4ccc(C(C)(C)O)nc4)nc32)CC1 — Tmax (patients, plasma; oral, 45 mg, day -1, median): 3 h
O=C(c1cccnc1-c1ccncc1)N1CCC(O)(Cc2ccccc2)CC1 — Tmax (healthy Japanese adults, plasma; oral, 1200 mg single dose): 0.5 h
COc1nnc2ccc(N3CCC(c4ccc(OCCN5CCN(C)C(=O)[C@H]5C)cc4)CC3)nn12 — Tmax (patients, plasma; oral, 10 mg twice daily, multiple dose, monotherapy, median): 1.72 h
CCCCC[C@H](O)CC[C@@H]1[C@H]2Cc3cccc(OCC(=O)O)c3C[C@H]2C[C@H]1O — Tmax (LC-MS/MS; Japanese PAH patients, plasma; inhaled, 54 µg, body weight under 56.7 kg, mean): 0.15 h
CN(CCC(=O)O)C(=O)c1ccc2c(c1)CC[C@@H]1[C@@H]2CC[C@]2(C)C(c3cncc(F)c3)=CC[C@@H]12 — Tmax (postmenopausal women, plasma; 30 mg single dose, median): 2.02 h
C[C@@](Cc1ccc(O)c(O)c1)(NN)C(=O)O — Tmax (female Parkinson's disease patients, plasma; oral, median): 1.75 h
C[C@H]1CN(C(=O)CC#N)[C@]12CCN(c1ncnc3[nH]ccc13)C2 — Tmax (healthy Japanese males; oral, 1 mg single dose, median): 0.8 h
CCc1nc2c(C)cc(N3CCN(CC(=O)N4CC(O)C4)CC3)cn2c1N(C)c1nc(-c2ccc(F)cc2)c(C#N)s1 — Tmax (healthy volunteers, fed, plasma; oral, 600 mg single dose, day 1, capsule): 2.5 h
CCc1nc(C(N)=O)c(Nc2ccc(N3CCC(N4CCN(C)CC4)CC3)c(OC)c2)nc1NC1CCOCC1 — Tmax (Japanese patients, plasma; oral, 120 mg, cycle 1 day 28, multiple doses, median): 5.06 h

Some of these lines once more:
CCCCCCCCCCCCCCCC(=O)N[C@@H](CCC(=O)NCCCC[C@@H]1NC(=O)[C@H]([C@@H](C)CC)NC(=O)[C@@H](NC(=O)[C@@H]2CCCN2C(=O)[C@H](Cc2ccccc2)NC(=O)[C@H](Cc2c[nH]cn2)NC(=O)[C@@H](NC(=O)[C@H](CC(=O)O)NC(=O)CC(C)C)[C@@H](C)O)CSSC[C@@H](C(=O)N[C@@H](CCCCN)C(N)=O)NC(=O)CNC(=O)[C@H](CCCCN)NC(=O)[C@H](CO)NC(=O)[C@H](CCCNC(=N)N)NC(=O)[C@@H]2CCCN2C(=O)[C@H](CCC(=O)O)NC(=O)[C@H](Cc2ccccc2)NC1=O)C(=O)O — Tmax (healthy volunteers, plasma; subcutaneous, 45 mg single, lyophilised formulation, median): 4 h
